# Experimental data of several laboratories.
# Numbered parts are unrelated; each lists some results of a single study.

# Block 1 — method: RNA Bind-n-Seq; molecule type: RNA; medium: in vitro; tested at: 200 nM; notes: whole 134-nt RNA, ends assumed; added: 150 mM LiCl; baseline: input library; direction: higher = stronger binding; library: 7-deaza-guanosine replaces G
# Target: Ras GTPase-activating protein-binding protein 1, full length (G3BP1, Homo sapiens, UniProt Q13283)
# Sequence of UniProt Q13283 (whole entry, looked up): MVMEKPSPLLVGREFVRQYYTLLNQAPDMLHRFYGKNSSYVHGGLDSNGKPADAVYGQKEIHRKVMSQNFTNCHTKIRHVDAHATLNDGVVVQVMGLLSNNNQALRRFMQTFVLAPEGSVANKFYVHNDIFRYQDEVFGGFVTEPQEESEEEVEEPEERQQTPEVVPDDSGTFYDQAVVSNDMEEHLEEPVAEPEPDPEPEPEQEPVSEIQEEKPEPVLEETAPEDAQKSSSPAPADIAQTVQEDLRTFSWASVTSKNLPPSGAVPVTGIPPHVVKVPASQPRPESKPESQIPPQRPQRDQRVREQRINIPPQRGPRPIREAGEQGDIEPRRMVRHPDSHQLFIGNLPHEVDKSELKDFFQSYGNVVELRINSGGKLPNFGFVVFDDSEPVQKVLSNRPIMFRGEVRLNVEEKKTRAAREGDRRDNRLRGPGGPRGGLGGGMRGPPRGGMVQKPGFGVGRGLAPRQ
Strand,log2 enrichment
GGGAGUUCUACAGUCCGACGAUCUGGGCCUGGUGGCAUGCGGGGAGGAAGAGGUGGCCUCAUGGAUCGUGGUGGUCCCGGUGGAAUGUUCAGAGGUGGCCGUGGUGGAGACAGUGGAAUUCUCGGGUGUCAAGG,0.24
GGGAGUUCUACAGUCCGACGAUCUGGCCCUGGUGGGAUGCGGGGAGGAAGAGGUGGCCUCAUGGAUCGUGGUGGUCCCGGUGGAAUGUUCAGAGGUGGCCGUGGUGGAGACAGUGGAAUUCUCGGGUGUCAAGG,0.53
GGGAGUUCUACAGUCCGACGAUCCCUCAAGUCCUGUGCUACACAUCGUAUGUACCGAAUCGGGGUGGGGUGGUGGGAAAGUAUUAUGUUACGCCGUUCGGAUCUGCACUUCCAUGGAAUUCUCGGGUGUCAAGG,-0.271
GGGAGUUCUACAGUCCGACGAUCUGGCCCUGGUCGCAUGCGGGGAGGAAGAGGUGGCCUCAUGGAUCGUGGUGGUCCCGGUGGAAUGUUCAGAGGUGGCCGUGGUGGAGACAGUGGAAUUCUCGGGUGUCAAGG,0.405
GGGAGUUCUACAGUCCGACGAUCGUCCUGUGCUACACAUCGUAUGUACCGAAUCGGGUUUUUUUGGGAAAAAGGGAAAGGGAAAGUAUUAUGUUACGCCGUUCGGAUCUGCACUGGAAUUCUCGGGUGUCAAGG,-1.58
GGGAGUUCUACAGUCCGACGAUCUCAAGUCCUGUGCUACACAUCGUAUGUACCGAAUCGGCCCGGGCCCGGGGCCCGGAAAGUAUUAUGUUACGCCGUUCGGAUCUGCACUUCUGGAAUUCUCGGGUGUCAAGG,-0.581
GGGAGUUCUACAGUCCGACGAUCUAACUUUAGAGAAGGAUCUGAUGGAUAUGGCAGUGGACGUGGAUUUGGGGAUGGCUAUAAUGGGUAUGGAGGAGGACCUGGAGGUGGCAAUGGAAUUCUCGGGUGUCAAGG,-0.25
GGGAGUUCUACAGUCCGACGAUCUGGCCCGGGUGGCAUGCGGGGAGGAAGAGGUGGCCUCAUGGAUCGUGGUGGUCCCGGUGGAAUGUUCAGAGGUGGCCGUGGUGGAGACAGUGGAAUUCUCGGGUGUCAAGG,0.022

# Block 2 — method: RNA Bind-n-Seq; molecule type: RNA; medium: in vitro; tested at: 365 nM; baseline: no-protein control; direction: higher = stronger binding
# Target: RNA binding protein fox-1 homolog 2, RRM domain, GST-SBP tag (RBFOX2, Homo sapiens, UniProt O43251-10, residues 100-194)
# Notes: natural RNA segment, single round, ends assumed
# Construct (chain): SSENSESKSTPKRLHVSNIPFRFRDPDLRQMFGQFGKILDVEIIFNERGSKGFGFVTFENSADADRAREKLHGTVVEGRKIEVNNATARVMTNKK
Strand,RBNS enrichment (R)
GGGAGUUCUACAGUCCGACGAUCACGCUGAUGGGGAAAUAGUUCUUUCUCCCCCCACAGCCCCUGCCACUCACUAGGCUCCCACUUGCCUCUUCUGUGAAAAACUUCAAGCCCUGGCCUCCCCACCACUGGGUUGGAAUUCUCGGGUGCCAA,0.626
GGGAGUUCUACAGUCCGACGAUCCAUAUUUAAGAUUUGAGAUACCAAAAGAAUGUCCCUCAAGGGACAUUGCCAUUUAUUCUAGAAUUAAUCAUGCAUUUGAGGUAAUACAAAAUAUAGUUUUAUCAUGUUAGUGGAAUUCUCGGGUGCCAA,0.298
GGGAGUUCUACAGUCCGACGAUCUCCAGGAGAGAGCCAGGAUGCCCAGAUGAACUGACUGAAGGAAAAGCAAGAAACAGUUUCUUGCUUGGAAGCCAGGUACAGGAGAGGCAGCAUGCUUGGGCUGACCCAGCUGGAAUUCUCGGGUGCCAA,2.3
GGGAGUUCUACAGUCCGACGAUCUCAGGAUACUUAUGGGCAACAGUGGAAUAGACAAGUGAGGGCUUGAAAACGAUUCUGUCAAGAUCCAAUUGGCUCUAGAUCUACAUUCUUCAAACAAAAUUGGCGUAACUUGGAAUUCUCGGGUGCCAA,0.405
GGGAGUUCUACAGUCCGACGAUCGGCCCAAACUUGAUUGGAGAAUUUGCAAACUACCGUCGCUCAGCAACACCAAAAAGAGAAAGUCUGGUUAAAACACCAUGAGUCAAAUGUCGGGCCAGCCAACAGUAACAUGGAAUUCUCGGGUGCCAA,0.383
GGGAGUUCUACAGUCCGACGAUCUGAAAGUGCCAGGUGCUAGAUUCCUCCUCCUUGGAAUUGUGUUAGGCUAGUUGGUCCUCUUUGAGGAAGCAUAUAGUACAGACUUCUUAGCACUUAGGAAGCUUCUCCAAUGGAAUUCUCGGGUGCCAA,0.319
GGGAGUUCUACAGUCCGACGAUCGCGCCCUUUGCAUGUUGCACUCUGUUCUCAUUUGGAGGUUGGACUCAGACCAGUUAGCACAGUAUUCUCUCAUCUGUGUCACUUUGUAAAACUAACUGUACUCUGUAUUUUGGAAUUCUCGGGUGCCAA,37.3
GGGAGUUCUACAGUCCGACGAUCCAACUAUGCGGUUACCCUCUGAGGAUAAGUUCCUCAGCCCGGGGUUCUUUUAUAUGCUGUGUCCUUUUGGGGUUUGACCUUACCAAAGCAAAGAAACAAAAAACAAAAAAUGGAAUUCUCGGGUGCCAA,0.451

# Block 3 — method: EMSA with sequencing; molecule type: double-stranded DNA, one strand shown; medium: in vitro; tested at: 10 and 20 nM; baseline: negative control set to 0; direction: higher = stronger binding
# Target: Hepatocyte nuclear factor 3-alpha (Foxa1, Mus musculus, UniProt P35582, residues 1-468, full length assumed)
# Notes: whole designed probe, mean of two concentrations, ends assumed
# Residues (chain): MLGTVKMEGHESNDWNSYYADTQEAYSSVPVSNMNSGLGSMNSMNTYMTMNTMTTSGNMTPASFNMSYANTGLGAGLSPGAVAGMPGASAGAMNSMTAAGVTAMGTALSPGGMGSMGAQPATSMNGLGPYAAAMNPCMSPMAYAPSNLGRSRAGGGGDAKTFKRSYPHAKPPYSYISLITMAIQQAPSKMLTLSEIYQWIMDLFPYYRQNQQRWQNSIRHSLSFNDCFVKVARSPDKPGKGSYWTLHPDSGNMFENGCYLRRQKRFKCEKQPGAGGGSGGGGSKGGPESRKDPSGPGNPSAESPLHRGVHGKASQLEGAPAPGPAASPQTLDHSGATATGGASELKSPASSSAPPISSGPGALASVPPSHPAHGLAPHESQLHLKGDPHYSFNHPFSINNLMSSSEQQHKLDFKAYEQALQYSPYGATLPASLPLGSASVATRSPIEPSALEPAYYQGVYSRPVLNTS
Strand,normalised bound fraction
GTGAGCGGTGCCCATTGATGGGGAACATCTTCCCCCTCTTCCTTGCCCCACCAGCTCACCTTCCCGGGTCAAAGTAAACAAGTGTTTACTTTGAAGCCGGCATTCGTTAACCCTCTTCTGGCGCAAACTGCCAAAGTAAACAGATCTAACATGGTCCTTTGGCGACGCCAGGCTCCGGGAGAGCAAAGCACCGTGTCAGGGCCATGATCCGGGGTGGCCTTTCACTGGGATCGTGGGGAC,0.533 ratio
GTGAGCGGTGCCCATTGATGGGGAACCCCCTCTTCATCTTCCTTGCCCCACCAGCTCACCTTCCCGGGTTATTTGCAGATAGGAAAATAAATAAAGCCGGCATTCGTTAACCCTCTTCTGGCGCAAACTGCTGTTTGCTCTGGATGAATCATGGTCCTTTGGCGACGCCAGGCTCCGGGAGAGCAAAGCACCGTGTCAGGGCCATGATCCGGGGTGGCCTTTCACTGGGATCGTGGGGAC,0.321 ratio
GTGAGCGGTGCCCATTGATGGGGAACTGCCCAGCCTCTTTTCTCCATACAAGTTATTTATTGAAGTATGAATGAATGATGATTGGTGTTTCAATGAGCACTCTTATGGGCCACTGCCTAAGTAATCTTCAAGAAGTCTCTGTACCAGATGCAGACTTAGTGGAACAAGTCCAGTTTTGAATGCATGAAGAAAGTGGTTTGGGAGAAGTAAAGTTTAGGCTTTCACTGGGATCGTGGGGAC,-0.033 ratio
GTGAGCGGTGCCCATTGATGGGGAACGTCCCTGGGCCTGGCTTGGGACAGACAGAGGCGTCATCTTGTTCTCATATGCGGGAAGGCTATGAAAAGAAAACCGCGTGTTGGTCCAAAATGTAATCTAGAATTACACTAGGATCTTTTGTTCTCACTCTGACATGGTCAGAATTAATTTGGAGGTCCAAAAAGAGGGCGTTTTGTTTTTTAATCTGAATTATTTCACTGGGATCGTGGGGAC,-0.0684 ratio
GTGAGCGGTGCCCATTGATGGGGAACCAAACTTTGCTGTAGTTTAACCCTGTAAATCATTGGAAAGTTTATCAAATACCTTAAATGCTTTTGCAACTTATTCATTCCCTGGTTATTTGGGTAAACAAGTACAGCGAACAGTTGGATGAACTTTATCTGAACTATTATCACTGAGCTGTTGGGGGAAATTCCGTCTTTTCCAAATCTGTACTGCGATATATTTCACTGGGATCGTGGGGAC,0.174 ratio

# Block 4 — method: protein binding microarray; molecule type: double-stranded DNA, one strand shown; medium: in vitro; tested at: not given; baseline: not given; direction: higher = stronger binding
# Target: Histone acetyltransferase KAT6A, winged helix 1, GST fusion (KAT6A, Homo sapiens, UniProt Q92794, residues 1-85)
# Notes: 8-mer, flanks averaged, mean of 2 arrays, mostly near background
# Construct (chain): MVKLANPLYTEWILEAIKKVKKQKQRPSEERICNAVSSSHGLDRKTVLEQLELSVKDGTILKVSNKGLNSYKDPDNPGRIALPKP
Strand,E-score
ACGTGGCC,-0.085
TACCAGTA,-0.171
AGAGTCAC,-0.177
AGAGGTCG,-0.063
AGCGGCGG,0.458
ACGATCCG,0.0892
TAATGGGA,-0.192
GCGTGACC,0.176
CGGGGGCC,0.299
ACTTGTCC,0.104
AACTTGGC,-0.167
ATGTGTGC,-0.0191
AAGTCATC,-0.212
ACGCTTGC,0.154
AGACCGAG,-0.0106
TACCGCCA,0.175
GTGACTAA,-0.0191
GAGCATAA,-0.0184
TATCTAAA,0.104
ATGCCATA,-0.141
AGCGTGGA,0.253
